Results pooled from the literature.
Compare with care: the assays were run in different laboratories. “And” joins repeats or separate records; there may be more than shown. ± marks the error that the study gave. Where no end group is shown, it is not given here. [ ]: non-standard residue; d: D form.
HLA class I histocompatibility antigen, A alpha chain allele A*02:01: HLA class I histocompatibility antigen, A alpha chain, allele A*02:01 (Homo sapiens, UniProt P04439)
HLA class I histocompatibility antigen, A alpha chain allele A*24:02: HLA class I histocompatibility antigen, A alpha chain, allele A*24:02 (Homo sapiens, UniProt P04439)
Sequence of UniProt Q64663 (whole entry, unmodified, looked up): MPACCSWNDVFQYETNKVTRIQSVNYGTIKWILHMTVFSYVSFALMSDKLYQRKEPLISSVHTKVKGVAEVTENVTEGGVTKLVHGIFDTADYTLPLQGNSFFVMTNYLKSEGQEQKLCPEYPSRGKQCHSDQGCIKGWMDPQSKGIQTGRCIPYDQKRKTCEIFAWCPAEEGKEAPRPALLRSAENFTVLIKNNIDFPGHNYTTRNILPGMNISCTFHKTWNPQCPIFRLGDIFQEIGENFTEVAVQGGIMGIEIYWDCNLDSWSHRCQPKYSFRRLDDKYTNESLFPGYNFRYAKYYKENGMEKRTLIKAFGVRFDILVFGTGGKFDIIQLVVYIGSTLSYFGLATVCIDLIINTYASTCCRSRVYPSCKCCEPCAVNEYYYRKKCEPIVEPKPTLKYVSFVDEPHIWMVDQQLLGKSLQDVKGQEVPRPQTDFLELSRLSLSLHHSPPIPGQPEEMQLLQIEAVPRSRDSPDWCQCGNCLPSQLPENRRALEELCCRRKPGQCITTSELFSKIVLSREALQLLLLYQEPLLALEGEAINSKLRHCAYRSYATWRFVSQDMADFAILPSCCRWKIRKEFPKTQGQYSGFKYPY
Sequence of UniProt P48067 (whole entry, looked up): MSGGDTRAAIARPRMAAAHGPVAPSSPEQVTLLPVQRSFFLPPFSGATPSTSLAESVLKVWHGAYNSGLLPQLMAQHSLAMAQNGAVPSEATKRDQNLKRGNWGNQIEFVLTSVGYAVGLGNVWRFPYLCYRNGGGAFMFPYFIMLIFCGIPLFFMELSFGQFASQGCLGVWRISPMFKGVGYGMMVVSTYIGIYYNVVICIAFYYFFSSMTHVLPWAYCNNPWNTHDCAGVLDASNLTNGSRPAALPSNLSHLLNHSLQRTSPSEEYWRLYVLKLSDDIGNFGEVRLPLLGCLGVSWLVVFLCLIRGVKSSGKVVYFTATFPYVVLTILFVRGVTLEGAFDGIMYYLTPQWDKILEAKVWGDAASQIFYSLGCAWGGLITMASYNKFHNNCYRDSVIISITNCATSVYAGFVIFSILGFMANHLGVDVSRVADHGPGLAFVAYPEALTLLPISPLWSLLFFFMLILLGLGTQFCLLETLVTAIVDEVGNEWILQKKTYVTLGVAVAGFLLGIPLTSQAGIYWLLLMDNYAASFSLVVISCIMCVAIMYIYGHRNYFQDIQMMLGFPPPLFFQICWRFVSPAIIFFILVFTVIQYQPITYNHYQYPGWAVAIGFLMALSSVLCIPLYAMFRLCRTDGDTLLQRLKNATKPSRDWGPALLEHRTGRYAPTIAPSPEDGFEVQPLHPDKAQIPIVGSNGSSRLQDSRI
Sequence of UniProt P05067 (whole entry, looked up): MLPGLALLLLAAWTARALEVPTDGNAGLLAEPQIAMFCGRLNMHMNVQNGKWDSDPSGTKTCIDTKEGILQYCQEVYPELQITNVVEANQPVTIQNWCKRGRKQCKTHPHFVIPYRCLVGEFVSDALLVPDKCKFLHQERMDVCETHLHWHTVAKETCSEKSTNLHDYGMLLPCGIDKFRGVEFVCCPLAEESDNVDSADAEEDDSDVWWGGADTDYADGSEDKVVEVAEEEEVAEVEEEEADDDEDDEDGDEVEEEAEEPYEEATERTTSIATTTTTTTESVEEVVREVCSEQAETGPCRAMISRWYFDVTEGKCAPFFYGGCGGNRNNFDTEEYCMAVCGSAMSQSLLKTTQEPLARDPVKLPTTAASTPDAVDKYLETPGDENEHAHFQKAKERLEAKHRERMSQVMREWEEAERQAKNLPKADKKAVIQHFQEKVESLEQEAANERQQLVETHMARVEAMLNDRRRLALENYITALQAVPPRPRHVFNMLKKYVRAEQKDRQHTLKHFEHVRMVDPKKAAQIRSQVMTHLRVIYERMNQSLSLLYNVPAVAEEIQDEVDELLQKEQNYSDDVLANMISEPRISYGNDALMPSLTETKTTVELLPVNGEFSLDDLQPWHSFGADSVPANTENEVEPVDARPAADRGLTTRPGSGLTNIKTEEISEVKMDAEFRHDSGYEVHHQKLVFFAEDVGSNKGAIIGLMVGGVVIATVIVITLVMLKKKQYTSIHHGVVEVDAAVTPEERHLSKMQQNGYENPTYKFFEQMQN
Sequence of UniProt P00690 (whole entry, looked up): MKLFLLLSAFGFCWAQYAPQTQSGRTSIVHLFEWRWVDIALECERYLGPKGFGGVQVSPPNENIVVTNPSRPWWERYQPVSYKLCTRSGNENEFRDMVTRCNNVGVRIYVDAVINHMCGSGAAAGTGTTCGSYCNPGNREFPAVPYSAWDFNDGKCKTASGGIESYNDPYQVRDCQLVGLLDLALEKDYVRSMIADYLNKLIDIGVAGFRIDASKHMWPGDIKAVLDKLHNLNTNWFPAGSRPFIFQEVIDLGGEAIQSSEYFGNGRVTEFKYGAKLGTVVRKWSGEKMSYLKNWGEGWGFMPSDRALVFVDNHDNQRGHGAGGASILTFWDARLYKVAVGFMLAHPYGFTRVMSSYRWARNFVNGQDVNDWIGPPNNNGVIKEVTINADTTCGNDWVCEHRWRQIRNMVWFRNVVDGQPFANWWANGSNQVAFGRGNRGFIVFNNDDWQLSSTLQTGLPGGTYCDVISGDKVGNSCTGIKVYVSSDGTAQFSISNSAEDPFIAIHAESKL
Sequence of UniProt P05412 (whole entry, looked up): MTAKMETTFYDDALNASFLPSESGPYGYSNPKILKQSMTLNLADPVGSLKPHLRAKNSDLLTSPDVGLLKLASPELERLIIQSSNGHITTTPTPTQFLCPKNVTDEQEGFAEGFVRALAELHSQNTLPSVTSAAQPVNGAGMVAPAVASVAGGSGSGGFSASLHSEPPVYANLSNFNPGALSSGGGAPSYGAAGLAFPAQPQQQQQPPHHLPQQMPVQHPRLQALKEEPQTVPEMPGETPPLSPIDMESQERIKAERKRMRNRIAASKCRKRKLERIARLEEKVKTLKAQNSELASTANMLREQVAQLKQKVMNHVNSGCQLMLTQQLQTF
Sequence of UniProt Q09428 (whole entry, looked up): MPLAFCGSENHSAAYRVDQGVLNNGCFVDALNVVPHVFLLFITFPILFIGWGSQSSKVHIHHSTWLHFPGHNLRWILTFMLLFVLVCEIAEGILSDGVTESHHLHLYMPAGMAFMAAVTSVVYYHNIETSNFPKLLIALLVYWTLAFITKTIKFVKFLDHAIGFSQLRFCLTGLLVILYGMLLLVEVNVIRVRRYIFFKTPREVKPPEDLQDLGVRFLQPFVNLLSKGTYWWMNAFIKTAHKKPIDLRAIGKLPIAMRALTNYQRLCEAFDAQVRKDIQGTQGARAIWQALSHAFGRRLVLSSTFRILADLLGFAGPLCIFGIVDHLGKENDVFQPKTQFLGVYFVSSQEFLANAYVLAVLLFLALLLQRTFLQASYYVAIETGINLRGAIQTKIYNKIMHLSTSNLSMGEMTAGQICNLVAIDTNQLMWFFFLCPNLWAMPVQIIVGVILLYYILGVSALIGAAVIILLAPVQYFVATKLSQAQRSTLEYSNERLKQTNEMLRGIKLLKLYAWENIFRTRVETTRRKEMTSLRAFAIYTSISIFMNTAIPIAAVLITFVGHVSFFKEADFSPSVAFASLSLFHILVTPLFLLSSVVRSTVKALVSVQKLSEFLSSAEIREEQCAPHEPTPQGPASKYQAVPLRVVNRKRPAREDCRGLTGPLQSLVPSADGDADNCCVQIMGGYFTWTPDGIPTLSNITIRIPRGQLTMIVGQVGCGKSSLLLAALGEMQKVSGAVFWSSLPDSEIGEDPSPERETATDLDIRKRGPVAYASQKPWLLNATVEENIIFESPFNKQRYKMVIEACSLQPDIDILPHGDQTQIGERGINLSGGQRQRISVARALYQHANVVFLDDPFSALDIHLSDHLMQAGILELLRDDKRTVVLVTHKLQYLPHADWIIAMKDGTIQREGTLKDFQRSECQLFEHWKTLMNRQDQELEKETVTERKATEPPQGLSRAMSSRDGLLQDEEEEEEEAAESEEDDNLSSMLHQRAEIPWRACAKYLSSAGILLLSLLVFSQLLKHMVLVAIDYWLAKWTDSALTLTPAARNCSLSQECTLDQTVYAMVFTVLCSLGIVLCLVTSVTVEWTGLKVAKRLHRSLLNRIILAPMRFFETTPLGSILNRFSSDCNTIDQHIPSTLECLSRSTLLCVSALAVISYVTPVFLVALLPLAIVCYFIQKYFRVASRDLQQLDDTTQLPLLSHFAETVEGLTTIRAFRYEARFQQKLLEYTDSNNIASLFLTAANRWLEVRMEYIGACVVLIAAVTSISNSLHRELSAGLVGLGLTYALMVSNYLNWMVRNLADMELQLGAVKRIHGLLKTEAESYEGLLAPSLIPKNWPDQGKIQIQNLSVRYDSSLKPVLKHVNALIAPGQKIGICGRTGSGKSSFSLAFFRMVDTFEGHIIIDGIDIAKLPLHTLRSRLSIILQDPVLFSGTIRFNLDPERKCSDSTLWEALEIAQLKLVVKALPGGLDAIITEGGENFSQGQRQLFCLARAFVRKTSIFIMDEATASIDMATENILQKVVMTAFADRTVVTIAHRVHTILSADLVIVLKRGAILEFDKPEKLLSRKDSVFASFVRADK
Sequence of UniProt P50613 (whole entry, looked up): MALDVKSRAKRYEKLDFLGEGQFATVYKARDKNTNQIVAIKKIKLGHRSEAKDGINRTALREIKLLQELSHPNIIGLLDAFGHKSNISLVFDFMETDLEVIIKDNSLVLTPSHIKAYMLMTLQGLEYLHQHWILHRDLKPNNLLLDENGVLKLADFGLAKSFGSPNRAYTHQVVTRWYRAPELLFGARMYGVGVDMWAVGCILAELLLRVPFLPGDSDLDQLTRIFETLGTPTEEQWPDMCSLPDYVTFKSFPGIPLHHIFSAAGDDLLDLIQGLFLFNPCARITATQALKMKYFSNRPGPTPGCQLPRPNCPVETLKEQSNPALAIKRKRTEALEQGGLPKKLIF

| Molecule | tested on | assay | test system | setting | scale | quantity | result |
| --- | --- | --- | --- | --- | --- | --- | --- |
| phosphatidylinositol bisphosphate | Sulfonylurea receptor 1, Kir6.2 (Homo sapiens, UniProt Q09428+Q14654) | inside-out patch clamp | HEK293 | concentration not given, 30 min | – | decrease in channel activity | < 10% |
| DGGLRNVDCL | Protein scribble homolog, PDZ3 domain (SCRIB, Homo sapiens, UniProt Q14160) | binding, fluorescence polarization | peptide, solution | Scribble PDZ3 domain | – | Kd | 100 µM |
| TQLMPFGSL | HLA class I histocompatibility antigen, A alpha chain allele A*02:01 | conformational ELISA | peptide | concentration not given | baseline: positive control peptide, direction not given | binding score | 2.3% |
| Asiaticoside | CDK7 (Homo sapiens, UniProt P50613) | enzyme activity, inhibitor, ADP-Glo kinase | – | 10 µM | – | inhibition | 34.8 ± 7.5% |
| TFQKNRLFF | human HLA-A24 (A*2401) | peptide-MHC binding, iTopia initial binding | peptide, plate-bound HLA heavy chain | 11 µM, 18 h, 21 °C | baseline: allele-matched positive control peptide | binding | 138% |
| 11-deoxycorticosterone | CYP11B2 (human) | substrate binding, stopped-flow kinetic modelling | – | 4-state branched induced-fit model, with: no adrenodoxin | – | rate constant k3 | 0.378 min⁻¹ |
| GSGAGIATEV | human MAGI1-3/6 PDZ construct (MBP fusion) | surface plasmon resonance | peptide | concentration not given | higher = stronger binding | normalised SPR binding response | 5.5 normalised RU |
| WVFEHPETL | HLA class I histocompatibility antigen, A alpha chain allele A*02:01 | HLA-A2 stabilization, peptide titration | peptide, T2 | 20 h, 37 °C, with: human β2-microglobulin 100 ng/mL | baseline: HIVpol reference peptide, lower is stronger | relative affinity | 3.26 |
| methyl-β-cyclodextrin | SLC6A9 (Homo sapiens, UniProt P48067) | transport activity, [3H]glycine uptake | – | 2.5 mg/mL, 1 min, with: glycine 900 µM | higher = more transport | glycine uptake rate | 78.4 a.u. and 74.7 a.u. and 79.5 a.u. and 67.1 a.u. and 81.1 a.u. |
| alpinetin | AMY2 (Sus scrofa, UniProt P00690) | enzyme activity | – | concentration not given, with: CNP-G3 | – | inhibition | 34.1 ± 0.98% |
| [Aib][Aib]IA (Aib = CC(C)(N)C(=O)O) | APP (Homo sapiens, UniProt P05067) | aggregation, ThT fluorescence | – | 24 h, 37 °C, Aβ to peptide ratio 1:1, with: Aβ1–42 2 µM | baseline: Aβ1–42 alone, lower is stronger inhibition | ThT fluorescence | 82.5% |
| STVQLIMQLM | HLA class I histocompatibility antigen, A alpha chain allele A*24:02 | conformational ELISA | peptide | concentration not given | baseline: positive control peptide, direction not given | binding score | 20.3% |
| epigallocatechin | Estrogen receptor (ESR1, Homo sapiens, UniProt P03372) | array formation | PRL-HeLa | – | baseline: EC50 ERβ over EC50 ERα | selectivity ratio | 0.697 |
| QLIMQLMPF | HLA class I histocompatibility antigen, A alpha chain allele A*02:01 | conformational ELISA | peptide | concentration not given | baseline: positive control peptide, direction not given | binding score | 30.5% |
| colistin | Pseudomonas aeruginosa | broth microdilution | clinical isolate RKI-No_584/15 | – | – | MIC | 1 µg/mL |
| QLMPFGSLL | HLA class I histocompatibility antigen, A alpha chain allele A*24:02 | conformational ELISA | peptide | concentration not given | baseline: positive control peptide, direction not given | binding score | 37.2% |
| BzATP | P2X purinoceptor 7 (P2rx7, Rattus norvegicus, UniProt Q64663, Q143A) | ion current, agonist, two-electrode voltage clamp | Xenopus oocytes | 33 µM | – | normalized current | 0.88 and 0.974 and 0.976 |
| SIAATLENDLARLENENARLEKDIANLERDLAKLEREEAYF | Transcription factor Jun (Homo sapiens, UniProt P05412) | heterodimer thermal denaturation, CD | peptide, 1 M GuHCl | 4 µM total peptide, pH 7.4 | – | Tm | 24.2 °C |
| GSGAGPETLV | human MAGI1-2/6 PDZ construct (MBP fusion) | surface plasmon resonance | peptide | concentration not given | higher = stronger binding | normalised SPR binding response | 12.6 normalised RU |
| DFGRAKLL | HLA class I histocompatibility antigen, A alpha chain allele A*24:02 | conformational ELISA | peptide | concentration not given | baseline: positive control peptide, direction not given | binding score | 1.8% |
| epoetin alfa | UT7/EPO | microarray, refers to: SOCS3 mRNA (probe set 227697_at) | – | 5 U/mL, 90 min | baseline: vehicle | mRNA level | 74.8 fold |
| LIMQLMPFGC | HLA class I histocompatibility antigen, A alpha chain allele A*02:01 | conformational ELISA | peptide | concentration not given | baseline: positive control peptide, direction not given | binding score | 25% |
| Peginesatide | UT7/EPO | tyrosine phosphorylation, LC-MS/MS phosphoproteomics, trypsin, refers to: STAT3 tyrosine 704 | – | 10 nM, 15 min, with: 10 U/mL EPO | baseline: vehicle | phosphorylation level | 5.5 fold |
